Results pooled from the literature.
Each line is one published result; not all experiments were run side by side. ± marks the error that the study gave.
DRD3: D(3) dopamine receptor (DRD3, Homo sapiens, UniProt P35462)
Ugcg: Ceramide glucosyltransferase (Ugcg, Mus musculus, UniProt O88693)
RAD52: DNA repair protein RAD52 homolog (RAD52, Homo sapiens, UniProt P43351)

SMILES | tested on | assay | system | setting | measurement | result
Cc1nn(-c2cccc(N)c2)c(=O)c2cnc(Nc3ccc(N4CCNCC4)cc3)nc12 | MET (Homo sapiens, UniProt P08581, M1250T) | enzyme activity, inhibitor |  |  | IC50 | > 10 µM
COCC1CN(C2CCN(c3cc(OC)c(Nc4ncc(Br)c(Nc5ccc6c(c5P(C)(C)=O)OCCO6)n4)cc3C)CC2)C1 | EGFR (Homo sapiens, UniProt P00533, C797S/del746-750) | kinase activity, TR-FRET |  | added: ATP at Km | IC50 | 0.00123 µM
CS(=O)(=O)c1ccc(-c2ccc([C@H]3[C@@H](F)[C@@H](F)C[C@@H](F)[C@H]3F)cc2)cn1 |  | liver microsome stability | human liver microsomes | 1 µM, without NADPH | hepatic clearance | 3.9 mL/min/kg
Cc1[nH]c(C)c(S(=O)(=O)Nc2cccc(Cl)c2)c1C(=O)N1CCCC1 | DRD3 | Go activation, antagonist, BRET |  | added: dopamine | IC50 | 9.4 ± 0.6 µM
OC[C@@H]1[C@@H](O)[C@H](O)[C@@H](O)CN1CCCCCOCc1ccc(-c2ccccc2)cc1C(F)(F)F | Ugcg | enzyme activity, inhibitor, fluorescence |  |  | IC50 | 0.025 µM
CC(Cc1ccc(O)c(O)c1)C(C)Cc1ccc(O)c(O)c1 (centres unmarked) | Thyroxine 5-deiodinase (DIO3, Homo sapiens, UniProt P55073, Y257A) |  |  |  | IC50 | 0.179 µM
O=C(CCCCCN1C[C@H](O)[C@@H](O)[C@H](O)[C@H]1CO)NC12CC3CC(CC(C3)C1)C2 | Ugcg | enzyme activity, inhibitor, fluorescence |  |  | IC50 | 1 µM
NS(=O)(=O)c1cc2c(cc1Cl)NC(CC1CCCC1)NS2(=O)=O (centres unmarked) | ALDH1B1 (Homo sapiens, UniProt P30837) | enzyme activity, inhibitor |  |  | IC50 | 0.81 µM
COc1c(Cl)cccc1Nc1c(-c2ccncc2C#C[C@@]2(C)CCCN2C(=O)/C=C/CN(C)C)[nH]c2c1C(=O)NCC2 | BUB1 (Homo sapiens, UniProt O43683) |  |  |  | IC50 | 0.28 µM
CCCCCCCCCOCCCCCN1C[C@H](O)[C@@H](O)[C@H](O)[C@H]1CO | Ugcg | enzyme activity, inhibitor, fluorescence |  |  | IC50 | 0.1 µM
O=C(Cc1ccc(OCc2ccccc2)cc1)NC1(C(=O)O)CCN(C(=O)c2ccc(-c3cccc(Cl)c3)cc2)CC1 | S1PR5 (Homo sapiens, UniProt Q9H228) | antagonist, GloSensor cAMP |  |  | IC50 | > 10 µM
OC[C@@H]1[C@@H](O)[C@H](O)[C@@H](O)CN1CCCCCOCc1ccc(-c2ccc(C(F)(F)F)cc2)cc1 | Ugcg | enzyme activity, inhibitor, fluorescence |  |  | IC50 | 0.025 µM
Cc1ccc(-c2ccc([C@H]3[C@@H](F)[C@@H](F)C[C@@H](F)[C@H]3F)cc2)cn1 |  | liver microsome stability | human liver microsomes | 1 µM, without NADPH | hepatic clearance | 3.9 mL/min/kg
Cn1nc(-c2ccc(Cl)cc2)c2cc(C(=O)NCCCN3CCCCCC3)sc21 | RAD52 | ssDNA annealing, fluorescence quenching |  |  | IC50 | 4.1 µM
COc1cc(F)c(-c2cc(Cn3cnc4c(N)ncnc43)c(N3CCC[C@](N)([C@H](O)C(F)F)C3)cn2)cc1F | SUV39H2 (Homo sapiens, UniProt Q9H5I1) | enzyme activity, inhibitor |  | single data points | IC50 | 5.93 µM
CCN(CC)CC(=O)Nc1cccc(-n2cc(-c3ccc4ccc(-c5cn(-c6cccc(NC(=O)CN(CC)CC)c6)nn5)cc4c3)nn2)c1 | MET (Homo sapiens, UniProt P08581) | enzyme activity, inhibitor |  |  | IC50 | > 10 µM
CCn1nc(Cl)c2c1-c1cnc(N)c(c1)O[C@H](C)c1cc(F)ccc1-c1nn(C)cc1C2 | ALK (Homo sapiens, UniProt Q9UM73, G1269A) | enzyme activity, inhibitor |  | added: 1 mM ATP | IC50 | 0.016 µM
COc1ccc(Nc2cc(NC3CC3)n3ncc(C#N)c3n2)cc1 | CAMK2A (Homo sapiens, UniProt Q9UQM7) | inhibitor |  |  | IC50 | > 10 µM
COc1cc(O)cc2c1C1(CCC(=O)CC1)CC2 | Si (Rattus norvegicus, UniProt P23739) | enzyme activity, inhibitor, absorbance |  |  | IC50 | 1540 µM
Nc1ncc(-c2cc(-c3cnn(CC(F)(F)F)c3)ncc2F)nc1C(=O)NC1CNCC(F)C1 (centres unmarked) | CHEK2 (Homo sapiens, UniProt O96017) | enzyme activity, inhibitor, radiometric |  |  | IC50 | 0.00906 µM
CSCC[C@H](N)C(=O)N[C@@H](CC(=O)O)C(=O)N[C@@H](CC(C)C)C(=O)N1CCC[C@H]1C(=O)N[C@@H](Cc1ccccc1)C(=O)N[C@H](CCC(=O)O)C(=O)N[C@@H](Cc1ccccc1)C(N)=O | Transcriptional regulator PlcR (Bacillus thuringiensis, UniProt A0ACM8Q0N2) | reporter gene, inhibitor, lacZ reporter | 407 Cry− |  | IC50 | 0.213 ± 0.02 µM
Cc1[nH]c(C)c(S(=O)(=O)Nc2ccc(F)cc2)c1C(=O)N1CCCC1 | DRD3 | β-arrestin recruitment, antagonist, PathHunter |  | added: dopamine EC80 | IC50 | > 100 µM

SMILES | tested on | assay | system | setting | measurement | result
OC[C@@H]1[C@@H](O)[C@H](O)[C@@H](O)CN1CCCCCOCc1ccc(-c2cc(C(F)(F)F)cc(C(F)(F)F)c2)cc1 | Ugcg | enzyme activity, inhibitor, fluorescence |  |  | IC50 | 0.02 µM
CCCCN(CC)CCNC(=O)c1cc2c(-c3ccc(Cl)cc3)nn(C)c2s1 | RAD52 | D-loop formation |  | added: RAD52 450 nM | IC50 | 10.6 ± 1.4 µM
Fc1ccc(Nc2nc(NC3CCCCC3)c3cc(Br)ccc3n2)cc1F | ADRB2 (Homo sapiens, UniProt P07550) | β-arrestin recruitment, antagonist |  |  | IC50 | 0.031 µM
C=CC(=O)Nc1cc(Nc2ncnc(Nc3ccccc3S(N)(=O)=O)n2)c(OC)cc1N(C)CCN(C)C | EGFR (Homo sapiens, UniProt P00533) | EGFR phosphorylation, inhibitor | A-431 |  | IC50 | 0.046 µM
O=C(COC(=O)c1cccc(-c2nnco2)c1)NC(c1ccccc1)c1ccc(Cl)cc1 (centres unmarked) | PLA2G4A (Homo sapiens, UniProt P47712) | enzyme activity, inhibitor, fluorescence |  |  | IC50 | 8.3 µM
CS(=O)(=O)Nc1cccc(-c2csc3cnc(Nc4ccc(N5CCN(CCCCCOc6cccc7c6C(=O)N(C6CCC(=O)NC6=O)C7=O)CC5)cc4)nc23)c1 (centres unmarked) | NEK9 (Homo sapiens, UniProt Q8TD19) | enzyme activity, inhibitor, FRET |  |  | IC50 | 0.039 µM
OC[C@@H]1[C@@H](O)[C@H](O)[C@@H](O)CN1CCCCCOCc1ccc(-c2ccccc2F)cc1 | Ugcg | enzyme activity, inhibitor, fluorescence |  |  | IC50 | 0.075 µM
O=C(Oc1cccc(CSc2ncccn2)c1)c1ccc([N+](=O)[O-])cc1 | Apelin receptor (APLNR, Homo sapiens, UniProt P35414) | β-arrestin recruitment, antagonist |  |  | IC50 | 1.2 µM
CCc1ccc(NS(=O)(=O)c2c(C)[nH]c(C)c2C(=O)N2CCCC2)cc1 | DRD3 | Go activation, antagonist, BRET |  | added: dopamine | IC50 | 11 ± 0.2 µM
Cc1cnc(Nc2ccc(C3CCN(C)CC3)c(F)c2)nc1Nc1ccc(Cl)c(NS(=O)(=O)C(C)(C)C)c1 | ULK2 (Homo sapiens, UniProt Q8IYT8) | enzyme activity, inhibitor |  |  | IC50 | 3.06 µM
COc1ccc(NC(=O)c2cnn(-c3ccc([N+](=O)[O-])cc3)c2C(F)(F)F)cc1OC | PTGS2 (Homo sapiens, UniProt P35354) | enzyme activity, inhibitor |  |  | IC50 | 4.92 µM
CN1CCN(C(=O)c2ccc(-c3cc4nccc(-c5ccc6cnccc6c5)c4o3)cc2)CC1 | IKBKE (Homo sapiens, UniProt Q14164) | enzyme activity, inhibitor |  |  | IC50 | 0.22 µM
CC(C)=CCC1CC(CC=C(C)C)C2(C)CCC(C(C)(C)O)C(=O)C2(C(=O)C(C)C)C1=O (centres unmarked) | Beta-secretase 1 (Mus musculus, UniProt P56818) | enzyme activity in cells, inhibitor |  |  | IC50 | 9.55 µM
Cc1ccc(-c2nc(C(=O)NCCCN3CCOCC3)cc3c2[nH]c2ccccc23)cc1 | RAD52 | D-loop formation |  | added: RAD52 450 nM | IC50 | 4.3 ± 0.35 µM
Cc1noc(C)c1-c1cc(Cl)c(Nc2ccccc2C(=O)NO)c(Cl)c1 | DHODH (Homo sapiens, UniProt Q02127) | enzyme activity, inhibitor, absorbance |  |  | IC50 | 9.2 µM
O[C@H]1[C@H](O)[C@@H](O)c2[nH]cnc2[C@@H]1O | GAA (Homo sapiens, UniProt P10253) |  |  | pH 4.8 | IC50 | > 100 µM
Cn1c(S)nnc1-c1ccc(F)cc1 | CUGBP Elav-like family member 2, residues 40-212 (Homo sapiens, UniProt O95319) | protein-RNA binding, inhibitor, fluorescence polarization |  | 200 nM protein, added: 10 nM RNA | IC50 | 1.76 ± 0.26 µM
[N-]=[N+]=NC(CC(=O)NO)Cc1c[nH]c2ccccc12 (centres unmarked) | ERAP2 (Homo sapiens, UniProt Q6P179) | enzyme activity, inhibitor, fluorescence |  |  | IC50 | 64 µM
OC[C@H]1N[C@H](CCCCCCOCC23CC4CC(CC(C4)C2)C3)[C@H](O)[C@@H](O)[C@@H]1O | Ugcg | enzyme activity, inhibitor, fluorescence |  |  | IC50 | 50 µM
CN1CCN(CCCNC(=O)c2cc3c(-c4ccc(Cl)cc4)nn(C)c3s2)CC1 | RAD52 | ssDNA annealing, fluorescence quenching |  |  | IC50 | 2 µM
CCCCCCOCCCCCN1C[C@H](O)[C@@H](O)[C@H](O)[C@@H]1CO | Ugcg | enzyme activity, inhibitor, fluorescence |  |  | IC50 | 0.1 µM
C[C@@H]1Cc2c([nH]c3ccccc23)[C@@H](c2c(F)cc(/C=C/C(=O)O)cc2F)N1C12CC(C1)C2 | Androgen receptor (AR, Homo sapiens, UniProt P10275) | agonist |  |  | IC50 | > 10 µM

Repeated from above:
SMILES | tested on | assay | system | setting | measurement | result
O[C@H]1[C@H](O)[C@@H](O)c2[nH]cnc2[C@@H]1O | GAA (Homo sapiens, UniProt P10253) |  |  | pH 4.8 | IC50 | > 100 µM
Cn1c(S)nnc1-c1ccc(F)cc1 | CUGBP Elav-like family member 2, residues 40-212 (Homo sapiens, UniProt O95319) | protein-RNA binding, inhibitor, fluorescence polarization |  | 200 nM protein, added: 10 nM RNA | IC50 | 1.76 ± 0.26 µM
[N-]=[N+]=NC(CC(=O)NO)Cc1c[nH]c2ccccc12 (centres unmarked) | ERAP2 (Homo sapiens, UniProt Q6P179) | enzyme activity, inhibitor, fluorescence |  |  | IC50 | 64 µM
OC[C@H]1N[C@H](CCCCCCOCC23CC4CC(CC(C4)C2)C3)[C@H](O)[C@@H](O)[C@@H]1O | Ugcg | enzyme activity, inhibitor, fluorescence |  |  | IC50 | 50 µM
CN1CCN(CCCNC(=O)c2cc3c(-c4ccc(Cl)cc4)nn(C)c3s2)CC1 | RAD52 | ssDNA annealing, fluorescence quenching |  |  | IC50 | 2 µM
CCCCCCOCCCCCN1C[C@H](O)[C@@H](O)[C@H](O)[C@@H]1CO | Ugcg | enzyme activity, inhibitor, fluorescence |  |  | IC50 | 0.1 µM
